{"data": "Measured values pooled from the literature", "cell line": "L929", "note": "Lines come from different studies, so protocols differ."}
{"SMILES": "C=CC(=O)NCCCCCCCCCCOCc1cn(CCCCCCCCCCNC(=O)C=C)n[n+]1C", "test": "cell growth or viability", "setting": "72 h", "quantity": "IC50", "value": "15.1 µM"}
{"SMILES": "Cc1ccc(C(C)C)cc1.[Au][S]C1=NCCS1.[Cl][Ru][Cl].c1ccc(P(CP(c2ccccc2)c2ccccc2)c2ccccc2)cc1", "test": "cell growth or viability, trypan blue", "setting": "48 h", "quantity": "IC50", "value": "48.6 µM"}
{"SMILES": "CCCCCCCCC=CCCCCCCCCn1c(-c2cccnc2)nc(-c2ccc(C)cc2)c1-c1ccc(C)cc1", "test": "cell growth or viability, SRB", "quantity": "IC50", "value": "87.6 µM"}
{"SMILES": "CN1C(=O)N[C@H](Cc2c[nH]c3c(Cl)cccc23)C1=O", "test": "necroptosis protection", "setting": "16 h, with: TNFα 40 ng/mL", "quantity": "EC50", "value": "0.112 µM"}
{"SMILES": "COC(=O)c1ccc2c(c1)NC(=O)/C2=C(\\Nc1ccc(N(C)C(=O)CN2CCN(CCOCCOCCNC(=O)c3cc(OCc4cn(CCCCN5C[C@@H]6C[C@H]5C(=O)N[C@@H](CC(C)C)C(=O)N[C@@H](CCCNC(=N)N)C(=O)NCC(=O)N[C@@H](CC(=O)O)C(=O)N[C@@H](CC(C)C)C(=O)N6)nn4)cc(OCc4cn(CCCCN5C[C@@H]6C[C@H]5C(=O)N[C@@H](CC(C)C)C(=O)N[C@@H](CCCNC(=N)N)C(=O)NCC(=O)N[C@@H](CC(=O)O)C(=O)N[C@@H](CC(C)C)C(=O)N6)nn4)c3)CC2)cc1)c1ccccc1", "test": "cell internalization, flow cytometry", "setting": "5 µM, 24 h", "quantity": "fluorescence-positive cells", "value": "19%"}
{"SMILES": "Cc1ccc(-c2nc(-c3cccnc3)[nH]c2-c2ccc(C)cc2)cc1", "test": "cell growth or viability, SRB", "quantity": "IC50", "value": "88.4 µM"}
{"SMILES": "Cn1cncn1.[Ru+2].c1cc(-c2ccc3ccccc3n2)nc(-c2ccc3ccccc3n2)c1.c1ccc2cc3nc4c5cccnc5c5ncccc5c4nc3cc2c1", "test": "cell growth or viability, MTT", "setting": "dark", "quantity": "EC50", "value": "36 µM"}
{"SMILES": "COC(=O)c1ccc(-n2nc(C(F)(F)F)cc2-c2cc(OC)c(OC)c(OC)c2)cc1", "test": "cell growth or viability, SRB", "quantity": "IC50", "value": "14 µM"}
{"SMILES": "CCCCCCCCCCCCn1c(-c2cccnc2)nc(-c2ccc(C)cc2)c1-c1ccc(C)cc1", "test": "cell growth or viability, SRB", "quantity": "IC50", "value": "284 µM"}
{"SMILES": "Cc1ccc(C(C)C)cc1.[Cl][Ru]([Cl])[P](CP(c1ccccc1)c1ccccc1)(c1ccccc1)c1ccccc1", "test": "cell growth or viability, trypan blue", "setting": "48 h", "quantity": "IC50", "value": "39.6 µM"}
